Assay results of several laboratories.
Parts stem from different laboratories: compare values within a part only. Substitutions count along the parent as printed.

Series 1 — technique: protein-binding microarray; molecule type: double-stranded DNA, one strand shown; medium: in vitro; tested at: 250 nM; notes: 60-bp whole probe; together with: salmon DNA 0.4 mg/ml; relative to: random background probes; reading: higher = stronger binding; measurement: log fluorescence; shared flanks, not repeated: GCCTAGCAC … GTCTTGATTCGCTTGACGCTGCTG
Target: Interferon regulatory factor 7, full length, phosphomimetic (IRF7, Homo sapiens, UniProt Q92985, residues 1-503, S101K/S471D/S472D/S475D/S476D/S477D/S483D/S484D/S487D)
Construct (chain): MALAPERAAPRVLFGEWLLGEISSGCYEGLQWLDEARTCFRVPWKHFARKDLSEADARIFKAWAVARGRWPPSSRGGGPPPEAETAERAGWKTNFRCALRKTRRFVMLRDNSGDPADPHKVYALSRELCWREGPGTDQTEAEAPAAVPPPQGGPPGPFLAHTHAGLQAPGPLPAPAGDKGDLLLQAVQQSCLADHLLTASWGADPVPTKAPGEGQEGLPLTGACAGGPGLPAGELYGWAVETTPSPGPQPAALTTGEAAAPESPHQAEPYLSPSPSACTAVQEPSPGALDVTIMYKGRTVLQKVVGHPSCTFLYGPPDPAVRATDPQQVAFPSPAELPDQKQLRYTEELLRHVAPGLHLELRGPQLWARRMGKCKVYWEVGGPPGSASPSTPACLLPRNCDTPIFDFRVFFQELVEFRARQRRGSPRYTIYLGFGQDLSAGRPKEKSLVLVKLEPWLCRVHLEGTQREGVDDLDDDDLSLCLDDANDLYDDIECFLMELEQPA
CACGGACTGCTTCTCCTGACGTGCTAG: -0.206 z-score
GACGGTATCGACTTTCGGGGCGTGCTA: 0.747 z-score
TTAGGACTGATTTTCCTTTAGTGCTAG: 0.721 z-score
TTAGGTCTCGGTTTCGGTGAGTGCTAG: 7.03 z-score
GACGGTTGCCTTTTCCTGACGTGCTAG: 0.277 z-score
TCAGAACTGGGGTATCGATTAGTGCTA: 0.148 z-score
TACGGACTGGGTCTCGGGACGTGCTAG: -0.296 z-score
GACGGTTTCAACTATCGGGACGTGCTA: 0.437 z-score
GATGGACTGCTTATCCTGACGTGCTAG: -0.246 z-score
GACGTTATCCTTTTCCTGACGTGCTAG: 1.06 z-score
GACGGACTGGACACTGGGGATGTGCTA: -0.634 z-score
GACGATTTCAGTATCGAGGCGTGCTAG: 0.15 z-score
TTAGATTTCGGGTATCAATTAGTGCTA: 1.22 z-score
TTAGGTCTCGGTTTCGGGTAGTGCTAG: 8.2 z-score
TCAACTTTCTCTGCTCTTTTCGTGCTA: 0.955 z-score
TTAGATTCCGGGTATCGATTAGTGCTA: 2.04 z-score
TTAGATTCCATTTTCGATTAGTGCTAG: 6.27 z-score
CTCCTTCAGTATCCTTAGATGTGCTAG: 0.39 z-score

Series 2 — technique: RNAcompete; molecule type: RNA; medium: in vitro; tested at: 20 nM; notes: 7-mer, probes averaged, single round; relative to: mean of 7-mers; reading: higher = stronger binding; measurement: 7-mer Z-score
Target: PABPC1L2, full length, GST fusion (mouse, UniProt A0ABA7IW68)
Construct (chain): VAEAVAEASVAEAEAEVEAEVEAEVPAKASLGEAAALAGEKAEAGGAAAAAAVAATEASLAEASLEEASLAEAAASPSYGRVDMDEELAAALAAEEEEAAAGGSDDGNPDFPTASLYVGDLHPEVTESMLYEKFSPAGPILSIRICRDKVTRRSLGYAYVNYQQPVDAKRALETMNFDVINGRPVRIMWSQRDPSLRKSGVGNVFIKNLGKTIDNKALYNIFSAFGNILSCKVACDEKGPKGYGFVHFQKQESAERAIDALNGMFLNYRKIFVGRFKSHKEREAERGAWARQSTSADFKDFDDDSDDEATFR
UGCCUAA: -0.179
UGCCUUA: -0.331
CAUGCAA: 0.017
AGCCUGC: -0.155
GAUAUUU: -0.244
GUAUGCA: -0.191
CGAUGCC: -0.282
GGCCGAG: 0.0406
UGUCUAA: -0.0881
CGUAUCG: -0.391
CUACCUG: -0.311
CAGGCCG: -0.11
GUUGUCG: -0.434
GGCUCGG: -0.0101
AGUGAAA: 1.1
GCAUAAG: -0.0373
AUAUGAG: 0.102
GCCGCCC: -0.45

Series 3 — technique: RNA Bind-n-Seq; molecule type: RNA; medium: in vitro; tested at: 365 nM; relative to: no-protein control; reading: higher = stronger binding; measurement: RBNS enrichment (R)
Target: RNA binding protein fox-1 homolog 2, RRM domain, GST-SBP tag (RBFOX2, Homo sapiens, UniProt O43251-10, residues 100-194)
Notes: natural RNA segment, single round, ends assumed
Shared flanks, not repeated: GGGAGUUCUACAGUCCGACGAUC … UGGAAUUCUCGGGUGCCAA
Target sequence (chain): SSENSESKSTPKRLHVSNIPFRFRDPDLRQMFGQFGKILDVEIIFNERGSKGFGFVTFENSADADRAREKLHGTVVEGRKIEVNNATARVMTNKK
GCCUGGGUGAUGCUUUCCUAGGAGAGCCGGUAUUUGCUUGUAAGGGAAAGAAUGGUAUUGUAGAAAAACCCAAGAAAUGACCACGUGGUCAGUUUCAUGGUGAUGGCUAC: 0.648
AAUUCCAUCAAAUACUUGCUGUGUAAAUGUUUCUGGACUUUAUGUUAUUUAAUUUACUGACUGAAAUCCAAUUUGGAAUUUGGUAGCAGUUAAUUCAAGCCAAUUUUUUU: 0.514
GUCACCCUGGGCCUCAGUGAAGAAUUAGGGCCCGCGCUGCACAGGAAAGUUCCCUUUGGUCCACAGGGCCAUUUCAAGCAAGUUCAAUGACCUGGUCCCUUAGAGCUCCA: 0.396
CAGCCGGAGACUCAAGGUCACUGGAGACCUGUUUGACAUCAUGUCGGGCCAGACCGAUGUGGAUCACCCGCUGUGUGAGGAAUGCACAGACACUCUUUUAGACCAGCUGG: 0.325
UGACAGCUAGCUGUCACUGGUGCUACCCCAAAGCUUUCCAAUCUUUUAUGUAUUUUUUGUGAAUGAAACUGUUGCUGUAGGAAAGUCAAGGUUCAUGUAAGAGUAUCGUG: 3.82
AGAAAUGGCCCGUGAGACACAUAGCAGUAUUCCAUCGGCUUGGGUUGGUUCCAGUGUCAGAAGCAAGCACAGUUAUUGCUGUGUCUUCAGCUCACAGAGCCGCGUCCCUC: 0.207
CUAACUUAUUUAUGUUAAAAAGAGAUUUUUUUUUAAUCUAGACAAUAUACAAGCCAAAGUGGCAUGUUUUGUGCAUUUGUAAAUGCUGUAUUGGAUAGACUAGCCCCCCC: 1.91
UCUCAGUGAUUAGCUUUUGGUAUGUCUGUAGCUUUCCUUGAAGUUGAAUAAAUGUUUCCCCCACUCCAGUGCCCUCUACUUGUCUUUUCUCAGAGGGUCUGACUCUUUCA: 1.83
GUGUUAGGGAAAGAAAUCACAUGUUCAGAGCCUAAUUCAGUAGGAAGGGCUUUUCUCUACCCUGAAAUGAAGGUAAUCCAAAGGCAUCCAUUUUCUAGGCUUAAAAGAUA: 0.419
GUUGUAUGGGGCUUUCCCAGAAUCCCCUUCCCUGAGCAUCCUGGUCUCCCCCACACACACCUGUCACCUCUCUACAGAGACCCUGAGGGUGCGGUGAGAUGGAGGCCAUG: 0.895
AUUUCCGGGGAACGCCGUGACUGUCGGGCAGCCUGGAGCUUCCUGCAGCCUCCUACGCAGGGUCCACGCCACGUGGCCUGGGCUGCCAUCCUGCCGUCCUCCCACUGGCA: 0.312
UCCCUCUCAGCAGGAGGGGUAAUGGUAGAUACAGCCUCCAUACAUCUCUUUCUCCCCUUGUUUACCCUCCAUUCCCACUCUGAUUUAGACUUCUUGAUUGUCGAUCUCUG: 0.426

Series 4 — technique: protein binding microarray; molecule type: double-stranded DNA, one strand shown; medium: in vitro; tested at: not given; relative to: not given; reading: higher = stronger binding; measurement: E-score
Target: Histone acetyltransferase KAT6A, winged helix 2, GST fusion (KAT6A, Homo sapiens, UniProt Q92794, residues 85-181)
Notes: 8-mer, flanks averaged, mean of 2 arrays, mostly near background
Construct (chain): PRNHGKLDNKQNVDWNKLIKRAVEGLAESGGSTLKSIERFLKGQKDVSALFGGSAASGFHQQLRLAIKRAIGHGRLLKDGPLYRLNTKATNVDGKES
AGCTAGCC: -0.0101
GACGCCGC: 0.256
TACTACAA: -0.0845
AAATAGGA: -0.115
ACACGAGG: 0.0132
TCCCGACA: 0.102
CTCTTCCA: 0.0108
AATATATA: -0.0804
ATTCGTAA: -0.0753
GTCTCACA: -0.0608
ACCACACC: -0.0546
GGCAGCAA: 0.115
GTTCTCGA: -0.155
ATTGACTA: -0.0681
CCAATAAC: -0.0796
AGAGTGTA: -0.215
CACAGCGC: 0.139
ACCCAAGT: -0.0733
AAGGTGTA: -0.0458
GCCAGCAC: 0.0769
AGCGACCT: -0.0801

Series 5 — target: CCNB3, cyclin fold, Cln2 fusion (human); technique: yeast growth competition, sequencing; medium: yeast; notes: weak parent motif; relative to: not given; reading: higher = stronger binding; measurement: normalised enrichment score
Starting sequence: CDKN1C docking peptide (human); TSACRSLFGPVDH
TSACRALFGPVDH [S6A]: 0.354
TSACKSLLGPVDH [R5K F8L]: 0.16
TSACRSLFGPADH [V11A]: 0.544
TSACRSLAGPVDH [F8A]: 0.127
TSACRSAFGPVDH [L7A]: -0.0278
TSACASAFGPVDH [R5A L7A]: -0.0238
TSACRSLFGPVDA [H13A]: 0.343
TSAARSLFGPVDH [C4A]: 0.195

Series 6 — technique: universal PBM; molecule type: double-stranded DNA, one strand shown; medium: in vitro; tested at: not given; reading: higher = stronger binding; measurement: E-score
Target: Sal-like protein 4, full length isoform B (SALL4, Homo sapiens, UniProt Q9UJQ4-2, residues 1-616)
Notes: 8-mer, flanks averaged, mean of replicates
Target sequence (chain): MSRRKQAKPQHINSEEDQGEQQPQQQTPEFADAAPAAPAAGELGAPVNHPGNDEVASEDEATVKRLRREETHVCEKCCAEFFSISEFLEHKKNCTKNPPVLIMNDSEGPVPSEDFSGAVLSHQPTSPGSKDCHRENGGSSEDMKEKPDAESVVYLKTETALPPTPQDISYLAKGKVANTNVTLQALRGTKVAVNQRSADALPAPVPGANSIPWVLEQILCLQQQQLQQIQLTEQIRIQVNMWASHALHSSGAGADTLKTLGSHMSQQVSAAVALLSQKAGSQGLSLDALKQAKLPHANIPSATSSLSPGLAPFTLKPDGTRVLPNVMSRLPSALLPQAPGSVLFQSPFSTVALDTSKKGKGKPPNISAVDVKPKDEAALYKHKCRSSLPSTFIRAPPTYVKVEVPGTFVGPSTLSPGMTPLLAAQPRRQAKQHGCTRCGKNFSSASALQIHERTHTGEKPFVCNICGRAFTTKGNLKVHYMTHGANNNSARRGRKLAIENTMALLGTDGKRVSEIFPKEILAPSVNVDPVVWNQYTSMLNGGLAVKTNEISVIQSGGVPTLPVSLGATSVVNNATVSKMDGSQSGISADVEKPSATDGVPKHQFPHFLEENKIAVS
AGCGACAT: 0.0358
CTAACATC: 0.0312
CGGCTTGC: -0.339
CTAAGTAA: 0.147
AGCATATA: 0.299
AGGAGGGA: -0.151
CAAATCCG: -0.0214
CACACTGC: -0.208
CGGAGAGA: -0.28
CGGGGTTC: -0.297
CCGAGATC: -0.334
CCCAACGA: -0.0626
ATGGAATG: -0.112
CGGGCGGA: -0.352
GCAGTGCA: -0.0645
GTTTGTGA: 0.0157
ATTCGGTC: -0.127
ATAAGGGC: 0.0956
AGAATTTA: 0.299
GCTGCCTA: -0.153
CGACTAAG: -0.174
ACCGGACC: -0.298
AATCTTCT: 0.0138
GAAGGTCA: -0.0284
TAACGCCA: 0.0876

For quick reference, copied from above (series 3):
AAUUCCAUCAAAUACUUGCUGUGUAAAUGUUUCUGGACUUUAUGUUAUUUAAUUUACUGACUGAAAUCCAAUUUGGAAUUUGGUAGCAGUUAAUUCAAGCCAAUUUUUUU: 0.514
GUCACCCUGGGCCUCAGUGAAGAAUUAGGGCCCGCGCUGCACAGGAAAGUUCCCUUUGGUCCACAGGGCCAUUUCAAGCAAGUUCAAUGACCUGGUCCCUUAGAGCUCCA: 0.396
CAGCCGGAGACUCAAGGUCACUGGAGACCUGUUUGACAUCAUGUCGGGCCAGACCGAUGUGGAUCACCCGCUGUGUGAGGAAUGCACAGACACUCUUUUAGACCAGCUGG: 0.325
UGACAGCUAGCUGUCACUGGUGCUACCCCAAAGCUUUCCAAUCUUUUAUGUAUUUUUUGUGAAUGAAACUGUUGCUGUAGGAAAGUCAAGGUUCAUGUAAGAGUAUCGUG: 3.82
AGAAAUGGCCCGUGAGACACAUAGCAGUAUUCCAUCGGCUUGGGUUGGUUCCAGUGUCAGAAGCAAGCACAGUUAUUGCUGUGUCUUCAGCUCACAGAGCCGCGUCCCUC: 0.207
CUAACUUAUUUAUGUUAAAAAGAGAUUUUUUUUUAAUCUAGACAAUAUACAAGCCAAAGUGGCAUGUUUUGUGCAUUUGUAAAUGCUGUAUUGGAUAGACUAGCCCCCCC: 1.91
UCUCAGUGAUUAGCUUUUGGUAUGUCUGUAGCUUUCCUUGAAGUUGAAUAAAUGUUUCCCCCACUCCAGUGCCCUCUACUUGUCUUUUCUCAGAGGGUCUGACUCUUUCA: 1.83
GUGUUAGGGAAAGAAAUCACAUGUUCAGAGCCUAAUUCAGUAGGAAGGGCUUUUCUCUACCCUGAAAUGAAGGUAAUCCAAAGGCAUCCAUUUUCUAGGCUUAAAAGAUA: 0.419
GUUGUAUGGGGCUUUCCCAGAAUCCCCUUCCCUGAGCAUCCUGGUCUCCCCCACACACACCUGUCACCUCUCUACAGAGACCCUGAGGGUGCGGUGAGAUGGAGGCCAUG: 0.895
